Measurements gathered from unrelated publications.
Parts stem from different laboratories: compare values within a part only. Values joined by “and” are separate records of one study, mostly repeats; a detail may differ. Substitutions count along the parent as printed.
Chain of UniProt P41145 (whole entry, looked up): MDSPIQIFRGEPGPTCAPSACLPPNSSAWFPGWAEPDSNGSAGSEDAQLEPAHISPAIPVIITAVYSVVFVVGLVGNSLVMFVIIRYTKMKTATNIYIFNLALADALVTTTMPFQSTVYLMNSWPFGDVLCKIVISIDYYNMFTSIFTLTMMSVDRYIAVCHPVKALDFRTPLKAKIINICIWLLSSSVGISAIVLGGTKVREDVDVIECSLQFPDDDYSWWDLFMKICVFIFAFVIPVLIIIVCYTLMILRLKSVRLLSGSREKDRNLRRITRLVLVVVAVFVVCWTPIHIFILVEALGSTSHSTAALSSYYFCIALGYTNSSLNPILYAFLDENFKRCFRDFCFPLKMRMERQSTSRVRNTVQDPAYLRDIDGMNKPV
Chain of UniProt P11229 (whole entry, looked up): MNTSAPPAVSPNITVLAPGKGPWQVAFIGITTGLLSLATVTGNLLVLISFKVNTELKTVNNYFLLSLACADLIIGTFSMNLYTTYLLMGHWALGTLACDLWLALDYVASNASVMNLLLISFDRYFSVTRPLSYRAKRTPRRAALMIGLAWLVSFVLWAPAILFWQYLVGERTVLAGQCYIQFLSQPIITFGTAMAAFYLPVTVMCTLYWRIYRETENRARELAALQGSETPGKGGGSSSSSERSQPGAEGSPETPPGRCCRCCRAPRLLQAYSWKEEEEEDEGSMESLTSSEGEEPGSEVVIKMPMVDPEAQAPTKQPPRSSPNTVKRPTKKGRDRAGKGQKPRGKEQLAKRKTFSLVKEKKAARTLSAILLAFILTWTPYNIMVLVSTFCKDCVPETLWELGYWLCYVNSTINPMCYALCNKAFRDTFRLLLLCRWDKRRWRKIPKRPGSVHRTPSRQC

Series 1
Structure (SMILES): CCNC(=O)c1cc2c(N3CCOC[C@@H]3C)ccnc2[nH]1
Observed: ligand displacement
Technique: radioligand
Concentration: 10 µM
5-hydroxytryptamine receptor 2A (HTR2A, Homo sapiens, UniProt P28223) — inhibition: -7.89%.
Muscarinic acetylcholine receptor M1 (CHRM1, Homo sapiens, UniProt P11229) — inhibition: 21.7%.
Kappa-type opioid receptor (OPRK1, Homo sapiens, UniProt P41145) — inhibition: 13.1%.

Series 2
SMILES: CNC(=O)c1ccc(-c2cnn3ccc(C(=O)N(C)c4ccc(Cl)c(C(=O)OC)c4)cc23)cc1
Organism: Cryptosporidium parvum
Technique: qPCR
Host: IFN-γ knockout mouse
faeces; 3 mg/kg, day 5 post treatment — “faecal oocyst shedding”: 6.34 log oocysts/g faeces and 5.58 log oocysts/g faeces and 6.35 log oocysts/g faeces.
For faeces; 1 mg/kg, day 1 post treatment: “faecal oocyst shedding” read 6.68 log oocysts/g faeces and 6.29 log oocysts/g faeces and 6.42 log oocysts/g faeces.
It gave 6.89 log oocysts/g faeces for “faecal oocyst shedding” (1 mg/kg, day 5 post treatment).

Series 3
Target: UDP-N-acetylglucosamine--peptide N-acetylglucosaminyltransferase 110 kDa subunit (OGT, Homo sapiens, UniProt O15294)
Chain of UniProt O15294 (whole entry, looked up): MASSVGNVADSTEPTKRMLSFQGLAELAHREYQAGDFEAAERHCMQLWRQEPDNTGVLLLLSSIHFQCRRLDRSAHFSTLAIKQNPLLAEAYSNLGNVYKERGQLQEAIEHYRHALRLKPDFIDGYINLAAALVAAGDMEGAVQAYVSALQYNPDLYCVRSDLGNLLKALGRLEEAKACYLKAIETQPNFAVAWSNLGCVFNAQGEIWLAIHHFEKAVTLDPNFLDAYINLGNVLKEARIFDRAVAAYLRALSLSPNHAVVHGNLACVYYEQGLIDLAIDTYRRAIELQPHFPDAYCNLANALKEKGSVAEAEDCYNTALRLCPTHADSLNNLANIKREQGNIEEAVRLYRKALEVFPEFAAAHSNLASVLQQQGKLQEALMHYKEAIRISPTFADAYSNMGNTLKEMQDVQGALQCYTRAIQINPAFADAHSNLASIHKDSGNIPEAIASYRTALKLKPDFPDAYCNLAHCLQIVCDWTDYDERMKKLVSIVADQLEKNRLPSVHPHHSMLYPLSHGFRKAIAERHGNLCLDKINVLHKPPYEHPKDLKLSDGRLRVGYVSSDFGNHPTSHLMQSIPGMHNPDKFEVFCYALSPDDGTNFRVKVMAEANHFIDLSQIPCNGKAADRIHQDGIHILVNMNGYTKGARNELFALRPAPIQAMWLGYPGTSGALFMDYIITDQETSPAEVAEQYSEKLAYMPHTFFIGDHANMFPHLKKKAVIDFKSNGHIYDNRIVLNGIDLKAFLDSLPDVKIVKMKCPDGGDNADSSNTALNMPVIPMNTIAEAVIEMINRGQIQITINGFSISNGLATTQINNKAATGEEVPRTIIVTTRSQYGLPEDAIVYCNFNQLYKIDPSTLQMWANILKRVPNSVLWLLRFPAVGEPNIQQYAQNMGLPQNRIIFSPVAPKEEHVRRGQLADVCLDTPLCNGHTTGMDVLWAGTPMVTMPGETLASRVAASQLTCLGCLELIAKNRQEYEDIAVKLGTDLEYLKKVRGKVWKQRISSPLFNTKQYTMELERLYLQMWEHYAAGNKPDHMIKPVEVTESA
Observed: binding
Technique: phage display NGS
Form: peptide
Concentration: concentration not given
Notes: panning round 2
Relative to: input library
`WFPHQAHRADIISA` — result for “enrichment fold change”: 2.71.
Under “enrichment fold change”, `HNRHMHQHSHYMADT` is recorded as 6.1.
`ASWSRYHVHDHIHDF` — result for “enrichment fold change”: 5.19.
`YPHHDGHSHSYEPFH` — result for “enrichment fold change”: 4.24.
`SPHMNNHHHAVMGEH`: “enrichment fold change” 7.96.
Under “enrichment fold change”, `HWPYHHALDQPQRQD` is recorded as 4.65.
For `RDHSWHGHHATLLGT`, “enrichment fold change” read 5.62.
`DEHMIPNHHHHFTIE`: “enrichment fold change” 5.82.

Series 4
Target: tungstate, free oxyanion
Technique: microfluidic competitive inhibition
Matrix: in vitro, cell-free expressed
Concentration: not given
Notes: derived from inhibition constants, unchanged parent 2230 nM
Direction: lower = stronger binding
Starting sequence: PafA, mature enzyme, eGFP fusion (Elizabethkingia meningoseptica, UniProt Q9KJX5); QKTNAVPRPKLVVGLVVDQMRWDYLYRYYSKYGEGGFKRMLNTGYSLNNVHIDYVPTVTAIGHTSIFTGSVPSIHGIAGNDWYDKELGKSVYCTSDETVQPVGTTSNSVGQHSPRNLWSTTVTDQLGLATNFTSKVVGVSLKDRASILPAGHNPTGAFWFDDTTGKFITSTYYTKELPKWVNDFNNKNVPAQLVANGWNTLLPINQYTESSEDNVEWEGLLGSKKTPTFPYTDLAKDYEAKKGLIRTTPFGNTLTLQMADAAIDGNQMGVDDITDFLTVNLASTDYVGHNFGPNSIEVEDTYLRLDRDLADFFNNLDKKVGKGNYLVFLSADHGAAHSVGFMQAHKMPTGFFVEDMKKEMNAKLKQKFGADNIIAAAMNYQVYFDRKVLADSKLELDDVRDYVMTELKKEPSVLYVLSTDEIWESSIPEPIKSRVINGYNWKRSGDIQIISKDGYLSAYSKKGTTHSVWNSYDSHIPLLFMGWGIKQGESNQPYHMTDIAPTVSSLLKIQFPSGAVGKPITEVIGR
For `K85V`, “oxyanion analog dissociation constant” read 2.07 µM.
`G454V`: “oxyanion analog dissociation constant” 1.85 µM.
For `R246V`, “oxyanion analog dissociation constant” read 7.07 µM.
For `T301G`, “oxyanion analog dissociation constant” read 1.81 µM.
For `V50A`, “oxyanion analog dissociation constant” read 1.94 µM.
Under “oxyanion analog dissociation constant”, `L507G` is recorded as 1.15 µM.
`G243V` — result for “oxyanion analog dissociation constant”: 2.43 µM.
`V523A`: “oxyanion analog dissociation constant” 2.2 µM.
